Results of several laboratories.
A part holds a random share of what one study measured.

Study 1
Target: Ras GTPase-activating protein-binding protein 1, RRM domain (G3BP1, Homo sapiens, UniProt Q13283)
Sequence of UniProt Q13283 (whole entry, looked up): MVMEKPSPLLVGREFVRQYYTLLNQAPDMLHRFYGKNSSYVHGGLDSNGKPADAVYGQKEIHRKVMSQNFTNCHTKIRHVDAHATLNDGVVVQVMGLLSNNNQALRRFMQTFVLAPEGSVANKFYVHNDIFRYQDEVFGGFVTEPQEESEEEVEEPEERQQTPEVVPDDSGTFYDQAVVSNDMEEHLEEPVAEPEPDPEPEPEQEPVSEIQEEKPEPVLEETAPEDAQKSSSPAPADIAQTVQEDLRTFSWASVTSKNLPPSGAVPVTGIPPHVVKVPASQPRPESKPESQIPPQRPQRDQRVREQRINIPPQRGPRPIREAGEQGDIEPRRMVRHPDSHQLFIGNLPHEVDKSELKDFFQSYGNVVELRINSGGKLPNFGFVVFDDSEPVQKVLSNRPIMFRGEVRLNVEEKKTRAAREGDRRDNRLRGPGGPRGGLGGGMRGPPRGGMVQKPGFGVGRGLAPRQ
Method: RNA Bind-n-Seq
Molecule type: RNA
Sample: in vitro
Tested at: 1 µM
Setting: whole 134-nt RNA, ends assumed
Together with: 150 mM KCl
Baseline: input library
Direction: higher = stronger binding
`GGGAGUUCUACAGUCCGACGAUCUCCUGUGCUACACAUCGUAUGUACCGAAUCGGGUUUUUGGGAAAAAGGGUUUUUUUGGGAAAGUAUUAUGUUACGCCGUUCGGAUCUGCAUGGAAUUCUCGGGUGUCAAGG` has a log2 enrichment of -0.0432.
`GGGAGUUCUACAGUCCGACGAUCAAGUCCUGUGCUACACAUCGUAUGUACCGAAUCGGGAGGGUUUGGGAAAAAAAGGGAAAGUAUUAUGUUACGCCGUUCGGAUCUGCACUUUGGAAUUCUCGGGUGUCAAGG` gave a log2 enrichment of 0.332.
The log2 enrichment of `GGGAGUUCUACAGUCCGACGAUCUGGCCCUGGUGGCAUUCGGGGAGGAAGAGGUGGCCUCAUGGAUCGUGGUGGUCCCGGUGGAAUGUUCAGAGGUGGCCGUGGUGGAGACAGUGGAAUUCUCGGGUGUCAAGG` is reported as 0.869.
The log2 enrichment of `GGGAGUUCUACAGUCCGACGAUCCACAGACAACACGCACCCACACAGACACAGAGGGAAGGGGUUGGGAUGGGGACAGGGUGCACAGCAGGGCGGGGUAGGACCCCAGCUCCUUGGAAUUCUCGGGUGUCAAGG` is reported as -0.404.
With `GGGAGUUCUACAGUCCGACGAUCUGGCCCUGGUGGCAUGCGCGGAGGAAGAGGUGGCCUCAUGGAUCGUGGUGGUCCCGGUGGAAUGUUCAGAGGUGGCCGUGGUGGAGACAGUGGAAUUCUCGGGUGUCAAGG` the log2 enrichment was 0.946.
For `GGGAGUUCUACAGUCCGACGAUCCACAGACAACACGCACCCACACAGACACAGAGGGAAGGGGUUGGGAUGGGGACAGGGUGCACAGCAGGAAAGGGUAGGACCCCAGCCCCUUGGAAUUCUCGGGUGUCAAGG`, the log2 enrichment was -0.132.
For `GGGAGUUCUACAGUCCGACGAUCAGUCCUGUGCUACACAUCGUAUGUACCGAAUCGGGGUGGGGAGGGGUUUUUUUGGGGAAAGUAUUAUGUUACGCCGUUCGGAUCUGCACUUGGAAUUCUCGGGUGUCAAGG`, the log2 enrichment was 0.897.
`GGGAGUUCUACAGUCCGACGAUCAAGUCCUGUGCUACACAUCGUAUGUACCGAAUCGGAAAGGAAAAAGGAAAAAAAGGAAAGUAUUAUGUUACGCCGUUCGGAUCUGCACUUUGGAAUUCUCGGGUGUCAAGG` has a log2 enrichment of -0.0674.
`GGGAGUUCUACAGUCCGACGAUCUCCUCAAGUCCUGUGCUACACAUCGUAUGUACCGAAUCGGUGGGGUGGGUGGAAAGUAUUAUGUUACGCCGUUCGGAUCUGCACUUCCAGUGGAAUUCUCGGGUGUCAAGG` has a log2 enrichment of -0.0715.
The log2 enrichment of `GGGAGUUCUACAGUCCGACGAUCUAACUUUAGAGGAGGAUCUGAUAGAUAUGGCAGUGGACGUGGAUUUGGGGAUGGCUAUAAUGGGUAUGGAGGAGGACCUGGAGGUGGCAAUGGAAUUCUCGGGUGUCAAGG` is reported as -0.792.

Study 2
Target: Sal-like protein 4, full length isoform A (SALL4, Homo sapiens, UniProt Q9UJQ4, residues 1-1053)
Sequence of UniProt Q9UJQ4 (whole entry, looked up): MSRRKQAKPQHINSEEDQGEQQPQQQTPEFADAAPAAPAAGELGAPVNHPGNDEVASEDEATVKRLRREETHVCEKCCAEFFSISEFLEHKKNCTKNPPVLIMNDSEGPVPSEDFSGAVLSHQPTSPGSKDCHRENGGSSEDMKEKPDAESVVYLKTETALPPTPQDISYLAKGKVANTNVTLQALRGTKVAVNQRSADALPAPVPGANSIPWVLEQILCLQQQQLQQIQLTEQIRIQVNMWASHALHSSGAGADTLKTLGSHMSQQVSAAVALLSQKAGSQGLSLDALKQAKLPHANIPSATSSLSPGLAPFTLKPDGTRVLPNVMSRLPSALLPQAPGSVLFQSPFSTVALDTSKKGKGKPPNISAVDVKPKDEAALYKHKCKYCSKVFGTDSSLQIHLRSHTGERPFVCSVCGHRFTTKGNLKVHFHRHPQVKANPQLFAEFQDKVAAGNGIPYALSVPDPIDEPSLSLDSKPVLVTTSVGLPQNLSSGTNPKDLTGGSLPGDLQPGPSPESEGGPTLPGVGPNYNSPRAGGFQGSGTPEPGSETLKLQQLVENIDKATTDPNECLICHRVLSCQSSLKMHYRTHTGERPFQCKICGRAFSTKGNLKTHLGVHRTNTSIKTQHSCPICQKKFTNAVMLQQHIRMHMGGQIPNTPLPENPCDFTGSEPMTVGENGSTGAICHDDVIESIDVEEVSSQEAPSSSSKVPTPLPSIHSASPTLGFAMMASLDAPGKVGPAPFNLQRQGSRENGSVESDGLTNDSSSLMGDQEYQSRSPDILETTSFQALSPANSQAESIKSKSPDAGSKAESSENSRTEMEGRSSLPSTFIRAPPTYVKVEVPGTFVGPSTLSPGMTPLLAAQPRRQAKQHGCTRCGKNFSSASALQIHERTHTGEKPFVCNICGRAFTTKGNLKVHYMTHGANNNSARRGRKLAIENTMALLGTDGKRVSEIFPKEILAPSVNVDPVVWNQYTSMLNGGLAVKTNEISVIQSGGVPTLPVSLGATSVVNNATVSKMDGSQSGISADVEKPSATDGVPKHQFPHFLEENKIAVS
Method: universal PBM
Molecule type: double-stranded DNA, one strand shown
Sample: in vitro
Tested at: 600 nM
Setting: 8-mer, flanks averaged, mean of replicates
Direction: higher = stronger binding
`ACAACCTG` has an E-score of -0.000615.
The E-score of `CTGCACCA` is reported as -0.143.
For `ATGTAAGA`, the E-score was 0.278.
The E-score of `AGATAATC` is reported as 0.149.
For `CGTATACG`, the E-score was 0.0483.
`CACCCTGA` has an E-score of -0.195.
For `CAGGACAC`, the E-score was -0.116.
`CCTCGACC` gave an E-score of -0.154.
`ATTCCTTC` has an E-score of 0.157.
For `GCGCAATA`, the E-score was 0.136.
With `AATACTAT` the E-score was 0.313.
For `TACACCGA`, the E-score was -0.133.
`AGCTAGCT` gave an E-score of -0.0169.
`TATTTGCA` has an E-score of 0.279.
The E-score of `ATCGGACG` is reported as -0.2.
`ACAGATTC` gave an E-score of 0.172.
The E-score of `TCGCCCAA` is reported as -0.0793.
With `CGAAGTGC` the E-score was -0.00843.
`CGTTCATC` gave an E-score of -0.0302.
`AACACGGG` gave an E-score of -0.183.
The E-score of `ATGTCCTC` is reported as 0.144.
With `GCAACAAC` the E-score was -0.0101.
`CATGGACC` gave an E-score of -0.187.
With `AAGGGTGG` the E-score was -0.186.
`CTGTTGGC` gave an E-score of -0.219.

Study 3
Target: Interferon regulatory factor 7, full length, phosphomimetic (IRF7, Homo sapiens, UniProt Q92985, residues 1-503, S101K/S471D/S472D/S475D/S476D/S477D/S483D/S484D/S487D)
Method: protein-binding microarray
Molecule type: double-stranded DNA, one strand shown
Sample: in vitro
Tested at: 250 nM
Setting: 60-bp whole probe
Together with: salmon DNA 0.4 mg/ml
Baseline: random background probes
Direction: higher = stronger binding
Shared flanks, not repeated: GCCTAGCAC … GTCTTGATTCGCTTGACGCTGCTG
Target sequence (chain): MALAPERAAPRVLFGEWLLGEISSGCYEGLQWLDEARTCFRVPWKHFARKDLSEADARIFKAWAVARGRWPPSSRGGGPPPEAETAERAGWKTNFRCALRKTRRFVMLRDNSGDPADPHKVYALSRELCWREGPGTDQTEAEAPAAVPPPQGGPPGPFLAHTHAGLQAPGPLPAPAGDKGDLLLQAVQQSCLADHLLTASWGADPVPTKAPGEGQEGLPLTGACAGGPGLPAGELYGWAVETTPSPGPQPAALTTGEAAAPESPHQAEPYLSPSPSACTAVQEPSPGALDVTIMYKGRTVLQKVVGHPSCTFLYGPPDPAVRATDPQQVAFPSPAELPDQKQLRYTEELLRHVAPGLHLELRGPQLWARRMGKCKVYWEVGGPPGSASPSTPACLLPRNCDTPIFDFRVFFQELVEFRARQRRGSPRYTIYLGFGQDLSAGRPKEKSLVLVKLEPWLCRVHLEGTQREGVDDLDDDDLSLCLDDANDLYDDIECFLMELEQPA
The log fluorescence of `GTCGGTATCGGTTTCGGGACGTGCTAG` is reported as 7.81 z-score.
With `GACGATCTGAGTTTCGAGACGTGCTAG` the log fluorescence was 2.89 z-score.
`TCTTTTTGCACTCTCTACATGTGCTAG` has a log fluorescence of 1.79 z-score.
With `TTAGGTCTGGGTTTCGGTTAGTGCTAG` the log fluorescence was 6.47 z-score.
`AGACAGTTGAGTTCTGTTGCAGTGCTA` has a log fluorescence of -0.566 z-score.
`TCATTCTTGGGACTCACACTGTGCTAG` gave a log fluorescence of 0.901 z-score.
`TTAGGTCTCGGTTTCGGTTAGTGCTAG` gave a log fluorescence of 10.7 z-score.
For `TTAGGTCTACTACTGCTTTAGTGCTAG`, the log fluorescence was -0.154 z-score.
`ATATATATTATATATACACATGTGCTA` gave a log fluorescence of 0.588 z-score.
`TGGGCTACCGGGTCCCTCTTGTGCTAG` gave a log fluorescence of -0.549 z-score.
`ACCCTCATTCTACTATCGATGTGCTAG` has a log fluorescence of 0.717 z-score.
`TCCTGTGTCTTAAATAGGGCAGTGCTA` gave a log fluorescence of -0.0154 z-score.
The log fluorescence of `TTAGATTCCAGATTCGATTAGTGCTAG` is reported as 4.9 z-score.
For `GACGGACTGGTCTTTCGGGACGTGCTA`, the log fluorescence was -0.834 z-score.
With `TTAGATATCAGCCTCGATTAGTGCTAG` the log fluorescence was 0.236 z-score.
The log fluorescence of `TTAGGTATCTGGACTGGGTTAGTGCTA` is reported as -0.58 z-score.
The log fluorescence of `GTGGGTTTGAGTCTTCTCCTGTGCTAG` is reported as -0.921 z-score.
`TCAATTACCTCATCTTTCACTGTGCTA` gave a log fluorescence of 0.645 z-score.
For `TTAGGTATCCCTTTCCTTTAGTGCTAG`, the log fluorescence was 1.2 z-score.
`TTAGAACTGGGGTTTAGATTAGTGCTA` gave a log fluorescence of -0.539 z-score.
For `TTAGATTTCCGTTCCGATTAGTGCTAG`, the log fluorescence was 1.73 z-score.
For `AGTCCGTGGATTGACCAGATGTGCTAG`, the log fluorescence was -0.384 z-score.
The log fluorescence of `TCAGATATAGGATAACGAACTGTGCTA` is reported as 0.279 z-score.
`TTAGAATTCAGTCTCGATTAGTGCTAG` gave a log fluorescence of 1.7 z-score.

Study 4
Target: RNA binding protein fox-1 homolog 2, RRM domain, GST-SBP tag (RBFOX2, Homo sapiens, UniProt O43251-10, residues 100-194)
Method: RNA Bind-n-Seq
Molecule type: RNA
Sample: in vitro
Tested at: 365 nM
Setting: natural RNA segment, single round, ends assumed
Baseline: no-protein control
Direction: higher = stronger binding
Construct (chain): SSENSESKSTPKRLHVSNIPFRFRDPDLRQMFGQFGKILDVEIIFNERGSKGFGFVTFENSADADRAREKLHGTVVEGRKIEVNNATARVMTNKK
`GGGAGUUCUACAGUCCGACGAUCGUUUCUAGUUCCUGGCUCUUGAGGGGCUUGGUCCUGCCUGCUCUAUGGAAGGGGCCAAGAGGAGCUGCAAGGCAGCCCGGUUAGUGUUCGGGUGAAAUGGCAAGUUGUACUGGAAUUCUCGGGUGCCAA` — result for “RBNS enrichment (R)”: 0.439.
`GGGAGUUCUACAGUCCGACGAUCUGUGCCAGUUAUAGACUGUCCAGCAUCCAAGACGUUUCGGUUAUGUCGGGUCCUCAGAUCGCCUCUGACUUGUUACCACAACAAAUCAUUUUGAUUUCAGUGCCUGUUGGUGGAAUUCUCGGGUGCCAA`: “RBNS enrichment (R)” 0.39.
For `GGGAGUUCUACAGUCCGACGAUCAAUUGCCAAGUGCCUAUGCAAACCAGCUUUAGGUCCCAAUUCGGGGCCUGCUGGAGUUCCGGCCUGGGCACCAGCAUUUGGCAGCACGCAGGCGGGGCAGUAUGUGAUGGUGGAAUUCUCGGGUGCCAA`, “RBNS enrichment (R)” read 2.44.
`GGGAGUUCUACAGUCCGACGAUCUCAGAGUAAACUGCCUUGUCUUCCUCAGGUUUUGGAGCCCUGUGAGUUCAAUAAACCUUUUAUGUGGAAGAGAUUCGUCCUUAAGAUGUGUAUGUGGACAGUUCCCUGAGUGGAAUUCUCGGGUGCCAA`: “RBNS enrichment (R)” 0.616.
`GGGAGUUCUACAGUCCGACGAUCGCUGGGCUGGGCUUUGCCUUUCAGCAUUCUGUCUGUCUCACUGGUCAUGCAUUGUUCCAUAGUCGCCCUCAUGGGGUCAUUUCAUGCCUCCAGGCGGGGCCCGGAAGUAGUGGAAUUCUCGGGUGCCAA`: “RBNS enrichment (R)” 0.379.
For `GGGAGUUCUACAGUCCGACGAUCAAGUAUGGGCAUAAACUGGCUUCUGAAUCCCUUUCCAGAGUGUUGGAUCCAUUUCCCUGGUCUUGGCCUCACUCUCAUGCAGGCUUUCCUCUUGUGUUGGCAAGAUGGCUUGGAAUUCUCGGGUGCCAA`, “RBNS enrichment (R)” read 0.347.
`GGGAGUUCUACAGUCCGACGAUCCUCCCUGUCACCCUGGACCCGUCCAGGCCAGCGCACCUUCUUUCUUACUAGUCUGUUUUACUGGCUGAGACACCCUAUUUGGCAUUUUCACUGCUGGCUGGUGUGAUGGGUGGAAUUCUCGGGUGCCAA` — result for “RBNS enrichment (R)”: 0.489.
Under “RBNS enrichment (R)”, `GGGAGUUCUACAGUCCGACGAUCAUUAGGUGUUAAGAGUUUCCAAACGUGUUUUCUUUUUUCUUUUAUUGUUUGCUUAAACUUUGAAGAAAUAUGUGCCUCAGCUUAGAUGUUUUGUCUUCCCCUUUCUGCACUGGAAUUCUCGGGUGCCAA` is recorded as 0.773.
Under “RBNS enrichment (R)”, `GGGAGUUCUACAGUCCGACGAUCCACUGCUGAGACUGCCUCUUGUUAAUGUCACCAUCACCUCAUCACUCAGGCAAAGAGGGGAAAAUCCAUAAAAGAGGUGGAAAAUGCAUUUAGUUUUUUCAUUUUGUUCUUGGAAUUCUCGGGUGCCAA` is recorded as 0.75.
For `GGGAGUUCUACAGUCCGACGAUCGUCAGAUCAGCUCCUAAGGGGGUGACGCCUGCCCUCCCCAGAGCACUGGGUUGCAGGGGAUUGAAGCCCUCCAAAAGCACUUACGGAUUCUGGUGGGGUGUGUUCCAACUUGGAAUUCUCGGGUGCCAA`, “RBNS enrichment (R)” read 0.235.
`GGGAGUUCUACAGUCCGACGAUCCCUGACAUUGUAUGCCACAAGAGCUCUUGUGAUGAUGGAAUUUUGAUUAAAGUGCACCGGAAGACGCUUUGAGCUUCUUGUUCUCUCCCCUCCCCCCAUCUCUCUCGGUCUGGAAUUCUCGGGUGCCAA` — result for “RBNS enrichment (R)”: 0.796.
For `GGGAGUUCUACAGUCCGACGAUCCAAUUUGAACUCAGGUUGUUUAUGAGGGGAAAAAAACAGUUGCAUAGAGUAUAGCUCUGUAGUGGAAUAUGUCUUCUGUAUAACUAGGCUGUUAACCUAUGAUUGUAAAGUGGAAUUCUCGGGUGCCAA`, “RBNS enrichment (R)” read 0.555.
